# Measured values pooled from the literature.
# Numbered parts are unrelated; each lists some results of a single study.

# Study 1
# Target: Interferon regulatory factor 7, full length, phosphomimetic (IRF7, Homo sapiens, UniProt Q92985, residues 1-503, S471D/S472D/S475D/S476D/S477D/S483D/S484D/S487D)
# Method: protein-binding microarray
# Molecule type: double-stranded DNA, one strand shown
# Medium: in vitro
# Concentration: 2200 nM top
# Notes: 60-bp whole probe
# Added: salmon DNA 0.4 mg/ml
# Baseline: random background probes
# Direction: higher = stronger binding
# Shared flanks, not repeated: GCCTAGCAC … GTCTTGATTCGCTTGACGCTGCTG
# Target sequence (chain): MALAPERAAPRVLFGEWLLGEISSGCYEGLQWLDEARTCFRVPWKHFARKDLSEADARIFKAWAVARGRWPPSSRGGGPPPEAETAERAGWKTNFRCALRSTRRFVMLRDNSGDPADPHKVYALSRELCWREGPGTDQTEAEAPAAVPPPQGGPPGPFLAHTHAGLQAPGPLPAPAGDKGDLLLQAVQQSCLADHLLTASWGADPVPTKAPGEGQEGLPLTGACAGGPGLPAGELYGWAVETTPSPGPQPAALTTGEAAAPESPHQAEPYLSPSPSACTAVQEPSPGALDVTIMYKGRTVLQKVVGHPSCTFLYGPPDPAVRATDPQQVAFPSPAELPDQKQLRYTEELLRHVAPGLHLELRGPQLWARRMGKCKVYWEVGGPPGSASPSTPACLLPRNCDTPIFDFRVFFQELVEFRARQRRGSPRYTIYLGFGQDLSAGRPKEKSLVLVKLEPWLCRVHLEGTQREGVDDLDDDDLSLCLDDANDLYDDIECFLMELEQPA
Sequence,fitted relative affinity [z-score]
TTAGGTATCTGGACTGGGTTAGTGCTA,-0.3
TTAGGACTGTTTTTCCTTTAGTGCTAG,1.73
TCATCTCTGAAGACTCTCACTGTGCTA,0.487
TCATAACTTATTCTCTAACTGTGCTAG,0.767
TTAGAACTGGGGTTTAGATTAGTGCTA,-0.106
GACGATATCAGTATCGAGAAGTGCTAG,0.0832
TTAGGTATCGGACTGGGTAAGTGCTAG,-0.0949
CTAGGTATCGGACTGGGTTAGTGCTAG,0.0344
GCTTTTTTTTTTTTTTTTTTGTGCTAG,1.76
TCAGATATAGGATAACGAACTGTGCTA,-0.386
GACGGTATCGACTTTCGGGATGTGCTA,4.05
ATGACAATGATGTTTTGAGTTGTGCTA,0.282
GACGGTTTCGGGTATCGCGACGTGCTA,5.6
GACGGTTTCGGGTATCGTGACGTGCTA,5.84
TCCTGTGTCTTAAATAGGGCAGTGCTA,0.0259
CCACATTTGATAAATCTTTGTGTGCTA,0.846
GACGGTTTCCTACTGCTCACGTGCTAG,2.02
TTGGGTATCCTTCTCCTTTAGTGCTAG,1.19

# Study 2
# Target: Histone acetyltransferase KAT6A, both winged helices, GST fusion (KAT6A, Homo sapiens, UniProt Q92794, residues 1-181)
# Method: protein binding microarray
# Molecule type: double-stranded DNA, one strand shown
# Medium: in vitro
# Concentration: not given
# Notes: 8-mer, flanks averaged, mean of 2 arrays, mostly near background
# Baseline: not given
# Direction: higher = stronger binding
# Residues (chain): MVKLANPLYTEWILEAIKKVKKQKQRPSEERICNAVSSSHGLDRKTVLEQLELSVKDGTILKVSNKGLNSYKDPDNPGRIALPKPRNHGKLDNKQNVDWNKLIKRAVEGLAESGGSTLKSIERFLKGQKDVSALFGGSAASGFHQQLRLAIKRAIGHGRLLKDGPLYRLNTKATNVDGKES
Sequence,E-score
ACGGTGGC,4e-05
ACTAACCC,-0.189
AATTTGAA,0.0343
TATGTCAA,0.00322
CGTTTGCC,0.0908
CCGACGGA,0.354
GCATCCAA,-0.102
ATGTCGCA,0.215
TCATCAAA,0.023
CAGGCCCA,-0.176
ATGTCTGA,-0.0106
AATCCGAC,0.117
AATTTTAA,-0.0915
CGGTATGA,0.0651
GGTATGCA,-0.122
ATGCCGTA,0.287

# Study 3
# Target: RNA binding protein fox-1 homolog 2, RRM domain, GST-SBP tag (RBFOX2, Homo sapiens, UniProt O43251-10, residues 100-194)
# Method: RNA Bind-n-Seq
# Molecule type: RNA
# Medium: in vitro
# Concentration: 365 nM
# Notes: natural RNA segment, single round, ends assumed
# Baseline: no-protein control
# Direction: higher = stronger binding
# Shared flanks, not repeated: GGGAGUUCUACAGUCCGACGAUC … UGGAAUUCUCGGGUGCCAA
# Construct (chain): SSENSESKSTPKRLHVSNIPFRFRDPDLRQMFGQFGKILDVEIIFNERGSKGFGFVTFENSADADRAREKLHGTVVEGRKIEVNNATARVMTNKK
Sequence,RBNS enrichment (R)
CUCGUACGCAGGCAGAUGACACCUUAUGCCAACAGGGACGCCUGUGAGGCCGAGACCUUGAUGGGAAGAGGAUGCUCCCUUGUUACAAAUAAAGAAGGGCAGUGUGAACC,1.24
AAACGUUCACCCAGUGAUCUUGGGCUGGGGUUGUCUUUAGGAAAAGUUGAGACUAUAAGAGUCAUAAAUAAGUCCUUGUGUUUCCUUAAUUUAUUUUGUUAACACCCCUA,0.38
UUUCCUGUGACUUUAAGAGCAUCUGAUGUUCUGUUCUCUUCUCCCACUACGCAACCCACUGCCCUGCCCUGCCCUGCCCUGGCGGGGACUCUGGUUCCCUCCUUGCCUUC,1.64
UCUCUUCUCUCUUUGGUGUUCAUAGAGACAUUUCCAAUGGCAUUGCUUGAUUCAAAACCAAGGAAACCAGAACCAUUGAUCUUCUAUCUCUGUGAUUGCUAAGCAGUAGC,0.284
UCCCGGGGCAUGGUAAGCCUGAGUUUGCCCUAACACCUCACUUAUCAGCUCUAUUACGACCCUUCUCAUCCCUAUAGAAGAGGUUGCUAAGUAUCCACUUCCCUUUCUAU,0.399
CAUGAUACUCUUCGGUGGUAGUUUCAAAAGACACUACUAAUACGCAGGAAGCGUUCCAGCUAUUUAAUGCUGGCAACUACUGUUUAAUGGUCAGUUAAAUCUGUGAUAAU,0.251
UCCUGGCCCUGCGUUCUUAAUAUUGGGCUAUGGAGAGAUCCUCCUUUACCCUCUUGAAAUUUCUUAGCCAGCAACUUGUUCUGCAGGGGCCCACUGAAGCAGAAGGUUUU,1.71
CCAUGGGGUGUCACACCCCACACCUCAUGCUCGAGAGGCCCGACCCAGGGGCAGAAAACGGGGCUUGAAGAGUGUGUCCCCAUCCCACCCCCAGCCUCUGCCUUCUUGGC,0.559
AAGCUGCUUCACAACUCCAGGCUAGAAGGCAGGAGAGCGAUCUGAUGUGUUUCUUUCAUUUGCCAGAAUUCCUGAUACCAAAAGCCUCUCUCUCUGUUGAGUAACCUCUC,0.331
UGGGCUGCCAGAGAGGUUUGUAGCCCGGCCCUGACUGCAUCCUCCCCAUCCCUGGGGCAACAUUCCCUGGAGCUGUGCCAACAGGAGGACUGAAGCAGCCUGGUUUUAGA,0.73
CGAGGGUCCUUACUGCUGUGUACCAACACUGACCCCGCCCUCUCUGAGCUGUACUCUCUGCCCGUGACUAUGGCCUCUGUCAUUGCUCCGUUCCAACCACCCCCCCCCCC,0.693
GAGAUGUGAGGAUUUAGAUGUUUGCUAACUUCAAAACUGUGCUUGAAUAGACUAAUAAUAUAUGCUCUAUCAGAUGUCAGUUUUCAUUUAACUUGAUUCAUUUUUGGCUC,0.351

# Study 4
# Target: Sal-like protein 4, full length isoform A (SALL4, Homo sapiens, UniProt Q9UJQ4, residues 1-1053)
# Chain of UniProt Q9UJQ4 (whole entry, looked up): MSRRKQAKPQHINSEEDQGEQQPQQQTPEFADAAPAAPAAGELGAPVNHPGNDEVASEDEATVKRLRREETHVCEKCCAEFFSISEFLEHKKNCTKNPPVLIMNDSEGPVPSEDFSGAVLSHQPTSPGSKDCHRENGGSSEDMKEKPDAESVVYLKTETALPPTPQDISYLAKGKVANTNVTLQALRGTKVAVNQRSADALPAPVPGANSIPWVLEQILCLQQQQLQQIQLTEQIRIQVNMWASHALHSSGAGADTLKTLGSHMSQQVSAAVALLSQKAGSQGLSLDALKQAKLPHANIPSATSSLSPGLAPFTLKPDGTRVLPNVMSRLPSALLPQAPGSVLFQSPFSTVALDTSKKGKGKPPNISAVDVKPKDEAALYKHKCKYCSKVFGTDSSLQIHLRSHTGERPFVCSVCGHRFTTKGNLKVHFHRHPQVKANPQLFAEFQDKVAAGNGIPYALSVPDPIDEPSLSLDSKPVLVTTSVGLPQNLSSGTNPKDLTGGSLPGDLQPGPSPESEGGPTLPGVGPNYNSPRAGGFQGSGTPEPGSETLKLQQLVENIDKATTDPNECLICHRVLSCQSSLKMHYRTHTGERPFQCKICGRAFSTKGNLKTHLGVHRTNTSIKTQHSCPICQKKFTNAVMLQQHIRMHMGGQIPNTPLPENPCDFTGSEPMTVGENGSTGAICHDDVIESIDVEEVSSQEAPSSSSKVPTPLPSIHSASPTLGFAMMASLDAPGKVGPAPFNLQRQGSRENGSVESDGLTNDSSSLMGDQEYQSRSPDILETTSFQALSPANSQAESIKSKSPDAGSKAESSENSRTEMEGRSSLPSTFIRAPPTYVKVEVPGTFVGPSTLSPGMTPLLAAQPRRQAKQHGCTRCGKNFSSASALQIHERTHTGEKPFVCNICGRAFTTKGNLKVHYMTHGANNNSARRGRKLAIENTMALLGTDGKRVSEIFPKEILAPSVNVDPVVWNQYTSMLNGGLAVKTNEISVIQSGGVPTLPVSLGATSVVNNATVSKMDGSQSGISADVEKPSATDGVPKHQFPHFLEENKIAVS
# Method: universal PBM
# Molecule type: double-stranded DNA, one strand shown
# Medium: in vitro
# Concentration: 600 nM
# Notes: 8-mer, flanks averaged, mean of replicates
# Direction: higher = stronger binding
Sequence,E-score
AAGTCGTC,-0.0653
GCGGAGCC,-0.435
ACAGCGCC,-0.264
AACAACAT,0.203
CCTACTCA,-0.0687
ATCGTGTC,0.0058
ATCCTCGG,-0.247
CCAGTTCG,-0.122
ACCCTGCC,-0.288
GGCGCGCC,-0.156
CATCTAGG,-0.111
CTACGGGC,-0.331
CTTGCGGA,-0.142
ATCACTGG,0.0121
CGTTATGA,0.237
ATGTTCAA,0.0992
GACATTAA,0.244
AAGCTGGC,-0.163
CCATCGCC,-0.28
CTTGCCTA,0.0679
CGGGCCAA,-0.384
AGCAGAAG,-0.0671
CGACACGC,-0.202
AGCAAAAT,0.252
GATTGGGC,-0.0662

# Study 5
# Target: RING finger protein unkempt homolog, zinc fingers 1-6, GST-SBP tag (UNK, Homo sapiens, UniProt Q9C0B0, residues 30-357)
# Chain of UniProt Q9C0B0 (30-357, looked up): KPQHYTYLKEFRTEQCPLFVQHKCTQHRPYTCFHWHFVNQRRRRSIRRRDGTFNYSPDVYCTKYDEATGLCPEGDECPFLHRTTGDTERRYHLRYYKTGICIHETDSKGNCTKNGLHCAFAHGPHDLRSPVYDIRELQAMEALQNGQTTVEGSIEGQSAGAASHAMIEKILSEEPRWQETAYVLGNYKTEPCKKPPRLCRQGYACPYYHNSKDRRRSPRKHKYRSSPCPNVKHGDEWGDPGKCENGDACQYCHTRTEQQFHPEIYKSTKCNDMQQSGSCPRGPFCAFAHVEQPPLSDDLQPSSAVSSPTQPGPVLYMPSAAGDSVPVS
# Method: RNA Bind-n-Seq
# Molecule type: RNA
# Medium: in vitro
# Concentration: not given
# Notes: RNA with constant flanks, human-mouse chimeric sites, ends assumed
# Baseline: input RNA pool
# Direction: higher = stronger binding
# Shared flanks, not repeated: GGGAGUUCUACAGUCCGACGAUC … CAACAGAGGAUUGAGCAUCA
Sequence,bound/input enrichment [ratio]
AGAAAGCAAAACUUGGAACGAUUUAAGAAAGGAGAUGUAAGAUUCUUGAUUUGCACAGAUGUAGCUGCUAGAGGGAUUGAUAUCCAUGGCGUUCCUUAUGUGAUCAACGUCACCCUGCCU,0.2
UGUAACUUAUCUGUAAAAAAGGUUUCUCCCCUACUGUCAAAAAAUAUGCAUGUAUAGUAAUUAGGACUUCAUUCCUCCAUGUUUUCUUCCCUUAUCUUACUGUCAUUGUCCUAAAACCUU,1.13
CCAAUUGUGGAGCAGUACUUGAAGACAAAAAAGAACUCUAAUAAUUUAAUCAUCAAGUACAUUAGCUGCCGCCUGCUGACACUCAUCGUUAUACUGUUAGCGUGUAUCUACCUGGGCUAU,0.311
CUAAUCCCCUUUACUGCUCCCCCACUUCUCAUGGUAAUAACAAAGUCUUAUAUUCCCGUCCUAGCUUUCACUCAGAUGGCUUAUGGAGCCGGUUUCCUAGCUUUCUUGGGAGGGAUCAGA,0.898
CAGCCUCAGAGCCCAGACUUCCUGGAUAUUACCAACCCUAAAGCGGUAUUAGAAAAUGCAUUGAGAAACUUUGCCUGUCUGACGACUGGAGAUGUGAUUGCUAUCAACUAUAAUGAAAAG,0.5
CCACCAGGAUCCCAGAAACAUGACCCUUGCUGCCUACAAAGAGAAGAUGAAGGAGCUCCCGCUGGUGUCCUUGUUCUGCUCCUGCUUCCUGGCCGAUCCCCUGAAUAAGUCGUCCUACAA,0.224
AGAAAGCAAAACUUGGAAAGAUUUAAGAAAGGAGACGUAAGAUUCUUGAUUUGCACAGAUGUAGCUGCUAGAGGAAUUGAUAUCCAUGGCGUUCCUUAUGUGAUCAACGUCACCCUGCCU,0.292
AAUGUGGAGUUGAGUUCCUUGGCCCGGCUUCCCAGCUUGAAUAAACUCCGGAAGUUGGAGCUUAGUGACAAUAUAAUUUCUGGAGGCUUGGAAGUCCUGGCAGAGAAAUGUCCAAAUCUU,0.165
CUGAAAAACACAGAUAUCAAAGUUGUUGACUUUGGAAGUGCAACGUAUGACGACGAACAUCACAGUACUUUGGUGUCUACCCGGCACUACAGAGCUCCCGAGGUCAUUUUGGCUUUAGGU,0.243
CAGCGCCGAGGCCGCGGUUUCCCCCUGGGCCUCCCCAGCCGCCGCCAUGGGCAUCAAAUUUUUAGAAGUUAUCAAACCAUUCUGUGCAGUUCUACCAGAAAUUCAGAAGCCUGAAAGGAA,1.11
GAAACAUUUAAAUUUAAAGAAGCUGUUGUUCUAGGAAGCACGGACUUUCUAGAAGAUGAUAUAGAGAAAAUUGUAGAAGAACUGGGGAAAGAGUAUAAGGGCAACGCCUACCAUCUGAUG,1.4

# For quick reference, copied from above (study 1):
Sequence,fitted relative affinity [z-score]
TCATAACTTATTCTCTAACTGTGCTAG,0.767
TTAGAACTGGGGTTTAGATTAGTGCTA,-0.106
GACGATATCAGTATCGAGAAGTGCTAG,0.0832
TTAGGTATCGGACTGGGTAAGTGCTAG,-0.0949
CTAGGTATCGGACTGGGTTAGTGCTAG,0.0344
GCTTTTTTTTTTTTTTTTTTGTGCTAG,1.76
TCAGATATAGGATAACGAACTGTGCTA,-0.386
GACGGTATCGACTTTCGGGATGTGCTA,4.05
ATGACAATGATGTTTTGAGTTGTGCTA,0.282
GACGGTTTCGGGTATCGCGACGTGCTA,5.6
GACGGTTTCGGGTATCGTGACGTGCTA,5.84
TCCTGTGTCTTAAATAGGGCAGTGCTA,0.0259
CCACATTTGATAAATCTTTGTGTGCTA,0.846
GACGGTTTCCTACTGCTCACGTGCTAG,2.02
